# Experimental data pooled from the literature.
# Numbered parts are unrelated; each lists some results of a single study. Substitutions count along the parent as printed.

# Set 1
# Target: RNA binding protein fox-1 homolog 2, RRM domain, GST-SBP tag (RBFOX2, Homo sapiens, UniProt O43251-10, residues 100-194)
# Technique: RNA Bind-n-Seq
# Molecule type: RNA
# Medium: in vitro
# Tested at: 365 nM
# Notes: natural RNA segment, single round, ends assumed
# Baseline: no-protein control
# Reading: higher = stronger binding
# Residues (chain): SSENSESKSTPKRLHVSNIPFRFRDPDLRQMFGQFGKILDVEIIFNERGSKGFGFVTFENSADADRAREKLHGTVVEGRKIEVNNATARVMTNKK
Strand,RBNS enrichment (R)
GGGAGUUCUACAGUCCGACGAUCAGGGCACCGCCUCCCCGUGUCCUGUGUUUGGUCAGACACCUGCCCUUCACCCUCUGUGUCCAGAGGCCCAGCAUCUGUCACACAUCAAGGGGGCGUUUAUUCAGUCUUAGUGGAAUUCUCGGGUGCCAA,0.328
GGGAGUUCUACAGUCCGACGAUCUAGGCCUUGAAGAGGCCGAGCUUUCUCCCCCCAAUUGGUGGAGGACAGUCCAGAGAUGAGCAGAAAUCUUAAAUUCCUUCCUGAUCCAGCCUCCACAUGUGGCCUGCCCCUGGAAUUCUCGGGUGCCAA,0.501
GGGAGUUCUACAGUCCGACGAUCCUGCUUAUUAAUCUGUAUUGUACACAUGAUGAAAUGAAGCAGAAGCUGGGAGUCGGCCUUUCCUCUAGUAACCACCACAUGGCUCAGCAUCUGUGCCAAACAUAGGCGCUUGGAAUUCUCGGGUGCCAA,0.288
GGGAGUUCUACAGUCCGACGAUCGCCCAACCUGGGCAAGCAUGAGAAGUUCUCGGAGGUGCUUAAGCGGCUGCGACUUCAGAAGCGAGGCACAGGCGGUGUGGACACGGCUGCGGUGGGCGGGGUCUUCGACGUGGAAUUCUCGGGUGCCAA,9.79
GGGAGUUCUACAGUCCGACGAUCAAACCCGUGAAGCUCACCCAAGUGGAACACAGGGCUGCUUUCGAGUGGAAUGAAGAGGGGGCAGGAAGCAGCCCCAGCCCAGGCCUCCAGCCCGUCCGCCUCACCUUCCCUGGAAUUCUCGGGUGCCAA,0.423
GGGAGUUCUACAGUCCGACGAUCGACUGAGAGACUGACUGAGAGACUGCUGACUUGUAUUUUUCAGAGCUGCAGGUGGCCUGCCACGCCUGCCUGGCCAAGUUUCUGUUCCCCUCCUCCUAAAGUCAAGGUGGUGGAAUUCUCGGGUGCCAA,0.481

# Set 2
# Target: CCND1, cyclin fold, Cln2 fusion (human)
# Technique: yeast growth competition, sequencing
# Medium: yeast
# Notes: weak parent motif
# Baseline: not given
# Reading: higher = stronger binding
# Starting sequence: WEE1 docking peptide (human); HKTFRKLRLFDTP
Substitution,normalised enrichment score
L7R,-1.02
K6S,-0.06
T12A,0.073
L9R,-0.627
K2M,-0.119
L7C,0.482
H1N,0.55
K6D,0.266

# Set 3
# Target: Interferon regulatory factor 7, full length, phosphomimetic (IRF7, Homo sapiens, UniProt Q92985, residues 1-503, S471D/S472D/S475D/S476D/S477D/S483D/S484D/S487D)
# UniProt Q92985, sequence (whole entry, unmodified, looked up): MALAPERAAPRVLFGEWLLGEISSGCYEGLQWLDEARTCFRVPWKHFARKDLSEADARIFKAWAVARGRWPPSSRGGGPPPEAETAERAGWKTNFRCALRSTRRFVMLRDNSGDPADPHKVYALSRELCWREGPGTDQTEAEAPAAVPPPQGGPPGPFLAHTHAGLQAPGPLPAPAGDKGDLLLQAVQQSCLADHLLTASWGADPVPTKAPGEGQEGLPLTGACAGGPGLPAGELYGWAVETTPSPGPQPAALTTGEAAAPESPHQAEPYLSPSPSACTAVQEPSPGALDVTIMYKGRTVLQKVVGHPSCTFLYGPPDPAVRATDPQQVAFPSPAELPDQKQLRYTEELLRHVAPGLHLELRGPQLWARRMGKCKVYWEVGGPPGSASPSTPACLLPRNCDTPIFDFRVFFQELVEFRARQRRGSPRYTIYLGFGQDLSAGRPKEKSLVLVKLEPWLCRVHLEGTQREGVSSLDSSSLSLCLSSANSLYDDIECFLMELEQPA
# Technique: protein-binding microarray
# Molecule type: double-stranded DNA, one strand shown
# Medium: in vitro
# Tested at: 2200 nM top
# Notes: 60-bp whole probe
# Added: salmon DNA 0.4 mg/ml
# Baseline: random background probes
# Reading: higher = stronger binding
# Constant ends, left off below: GCCTAGCAC … GTGCTAGGTCTTGATTCGCTTGACGCTGCTG
Strand,fitted relative affinity
TCAATCTTCATTGTCATACT,0.923 z-score
CTAGGTTTCCTTCTCCTTTA,2.28 z-score
TTCTGGTTCCCATTCCAGGG,1.82 z-score
TACTTTCTACGTCTGATTTT,3.71 z-score
CTCTAAGACACAAGATCAGA,-0.55 z-score
GACGGACTGCTTATCGTGAC,0.209 z-score

# Further values, each from its own experiment
Substance,target,test,test system,conditions,how to read,measurement,result
"PhoQ, residues 284 288 289 292 302 303 TNSAEL","PhoP, residues 12 14 15 18 19 NQAHL (Escherichia coli, UniProt P23836)","Sort-seq, refers to: YFP reporter",E. coli,"PhoQ-PhoP variant library, added: 10 µM Mg2+","baseline: high Mg2+ state, higher = stronger signaling",fold induction,1.08

# Some of these lines once more (set 1):
Strand,RBNS enrichment (R)
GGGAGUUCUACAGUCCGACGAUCCUGCUUAUUAAUCUGUAUUGUACACAUGAUGAAAUGAAGCAGAAGCUGGGAGUCGGCCUUUCCUCUAGUAACCACCACAUGGCUCAGCAUCUGUGCCAAACAUAGGCGCUUGGAAUUCUCGGGUGCCAA,0.288
